# Results of several laboratories.
# A part holds a random share of what one study measured. Positions count from the first letter of the parent shown.

# Series 1
# Target: MAFK, bZIP domain (human)
# Method: DHFR protein complementation
# Matrix: yeast
# Setting: single substitutions, most at no-binding floor
# Reference: wild-type JUN-FOS pair
# Direction: higher = stronger binding
# Starting sequence: JUN, bZIP domain (human); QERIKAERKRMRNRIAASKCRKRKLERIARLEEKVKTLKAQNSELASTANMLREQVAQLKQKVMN; partner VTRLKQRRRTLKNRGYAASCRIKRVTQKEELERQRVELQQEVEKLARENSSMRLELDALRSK
Variant,binding fitness [natural log]
L59F,-1.48
K36M,-1.26
K39P,-1.5
A46G,-1.46
L52H,-1.42
K39M,-1.52
Q41N,-1.53
A57S,-1.39
N42E,-1.43
E44I,-1.41
Q55I,-1.5
Q41R,-1.5
V56F,-1.5
E33M,-1.55
L45Q,-1.49
K39D,-1.49
E44G,-1.5
A57P,-1.5
R30Q,-1.46
L31R,-1.52
A49Q,-1.52
A46H,-1.48
V56R,-1.45
S47T,-1.41
T48N,-1.51

# Series 2
# Target: ABI1, truncated, D143A, DHFR fusion (Arabidopsis thaliana)
# Method: DHFR PCA, deep sequencing
# Matrix: yeast
# Setting: methotrexate growth selection, single substitutions
# Added: (+)-ABA 1.4 µM
# Reference: wild-type fitted maximum
# Direction: higher = stronger binding
# Starting sequence: PYL1, truncated, DHFR fusion (Arabidopsis thaliana); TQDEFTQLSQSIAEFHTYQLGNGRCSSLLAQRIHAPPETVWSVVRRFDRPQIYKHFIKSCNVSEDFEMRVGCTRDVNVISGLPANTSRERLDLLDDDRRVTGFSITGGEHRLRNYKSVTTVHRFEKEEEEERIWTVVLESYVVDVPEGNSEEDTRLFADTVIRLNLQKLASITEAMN; partner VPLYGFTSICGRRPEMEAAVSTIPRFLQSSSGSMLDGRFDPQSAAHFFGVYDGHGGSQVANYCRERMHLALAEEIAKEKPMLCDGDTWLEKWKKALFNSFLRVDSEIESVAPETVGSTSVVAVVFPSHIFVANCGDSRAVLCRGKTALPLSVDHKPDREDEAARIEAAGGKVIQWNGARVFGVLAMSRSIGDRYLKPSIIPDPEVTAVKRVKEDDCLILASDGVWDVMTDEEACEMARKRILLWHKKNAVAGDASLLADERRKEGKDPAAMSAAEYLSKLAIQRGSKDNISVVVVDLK
Variant,relative binding score [%]
L28R,22.8
F103G,-4.87
T1W,60.3
D48Y,-11.5
P146S,0.115
C60N,-14.7
C25H,-3
R163G,30.9
F15A,-1.57
Q2N,59.4
P146R,-1.33
V78T,17.6
R45Y,-11.8
R49C,51.6
H122V,0.993
R69V,63.9
T6L,48.7
P83R,3.75
V70Y,-3.24
R46C,14.1
V40E,-6.91
E128M,50.6
E67K,48.7

# Series 3
# Target: CCND3, cyclin fold, Cln2 fusion (human)
# Method: yeast growth competition, sequencing
# Matrix: yeast
# Setting: weak parent motif
# Reference: not given
# Direction: higher = stronger binding
# Starting sequence: RB1 docking peptide (human); PKPLKKLRFDIEG; partner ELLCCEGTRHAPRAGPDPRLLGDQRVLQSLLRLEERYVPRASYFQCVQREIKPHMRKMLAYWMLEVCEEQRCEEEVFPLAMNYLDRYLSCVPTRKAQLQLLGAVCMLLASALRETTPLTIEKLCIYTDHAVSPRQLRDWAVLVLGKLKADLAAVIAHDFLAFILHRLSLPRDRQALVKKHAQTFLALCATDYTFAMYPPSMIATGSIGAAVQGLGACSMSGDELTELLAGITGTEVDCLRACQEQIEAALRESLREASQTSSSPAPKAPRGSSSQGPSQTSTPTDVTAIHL
Variant,normalised enrichment score
D10N,0.213
K6T,0.091
P1H,0.148
P1W,0.118
K5C,0.113
G13Q,0.124
F9C,0.103
R8M,0.0996
D10L,0.25
P3I,0.084
L4V,0.105
K2R,0.262
L7Y,0.109
G13P,0.139
E12C,0.138
K5D,0.0866
P3E,0.196
L4G,0.207

# Series 4
# Target: RNA binding protein fox-1 homolog 2, RRM domain, GST-SBP tag (RBFOX2, Homo sapiens, UniProt O43251-10, residues 100-194)
# Method: RNA Bind-n-Seq
# Form: RNA
# Matrix: in vitro
# Tested at: 365 nM
# Setting: natural RNA segment, single round, ends assumed
# Reference: no-protein control
# Direction: higher = stronger binding
# Shared flanks, not repeated: GGGAGUUCUACAGUCCGACGAUC … UGGAAUUCUCGGGUGCCAA
# Target sequence (chain): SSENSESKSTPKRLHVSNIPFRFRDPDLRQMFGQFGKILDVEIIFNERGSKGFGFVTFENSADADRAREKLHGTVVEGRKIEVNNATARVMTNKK
Oligonucleotide,RBNS enrichment (R)
UAUUGAAGAAAAACAAAUUAUCUAUUUUGUUUUCCCCCAUCUAACAUGAUAGUGCCCCCAACCAGGUUGUAGCAUUGCCUUUUAAAAGAGACUCACUCACUCUUAGUUUU,0.701
GUUUAAUUGCCAUGCUUAAUAAAUCAUGAGAACAAAAGAGUAUAGAAUGGAAAGCAUUCCCUGGUAGCUACUUUAAAUACAGGAGCCCUGUAACUUAAUACCAGUAGUCA,0.786
GGAAUUUUCACCUAAGAGGGAUAACUUGUUGCUUCCAAUGAAUGGCUCCCACUCUCGUGGGUGCAAAAGCGGCAGCAAAAAGCAGCCAUUUACUUGGGUACUUAAGAGUU,0.214
GUUAUUUUACAGCUGUUUGUUAAAAUAGUGAAUAAUUUAAUGAUCCUAAAAGUAACAGGUUUCGUGUGAGUGUGCUUGUAUACGUGAGAUUUGCCUUAUUUUCAGGUUGU,3.82
GGUGAGUUCCUUGGACGACCCCAGACAGGCUUCUGGAUCUGGCUCCAGGGUCAUCACAUGUCAAAGCAAUAUUGGGGAUUGCUAGGCUUCUUUCAACUUACUUUUCACAG,0.67
GGUGAUAGCAUGACCCUCCAUGCUUCUUACUGGUUAAUGCUAUUUCUCACAAUGAUGCAGAUUAGGAAAAUUGAAGUAUUCAGGAAACAGGGGUGGUUGCUAAGGUUCCG,0.822
CCCACAGUGGGUUUGGCUGAUUGUAGCCCUGGGCUGUUUUGCCAUGGAACUCUCCAGUGUUCCUAUAAAAUAGUAGUUCCAGCUAAAUAAACCUACUGUACUCAGUGCUU,0.281
AAGACAAAUACCUUGGCUCGGGAGGAGUGGGAACAGGGAGAGACAAAAACCACCACUUCCUGGGGAGACGUGGAUACCGUCCUCCUUGCCACCAUGGCCAGUAUGUGCAG,0.411
CCCUUCCAAACAAAAAAGGCAAAGUUGUCCUAAGGUGAUCUCACUGUUGUGAAUGCCCAGUUGUAUUUUUAUAAGGUUGUAUAUAUGGGGAAAAAAAGUAUCGGUGAGUU,1.11
ACAUUCCAAUGGGGCGGAGCCUGAGCUAGGGGGUGUGGCCUGGCUGCUAGAGUUGUGGUGGCAGGGGCCCUGGCCCCGUCUCAGGAUUGCGCUCGCUUUCAUGGGACCAG,0.561
CUAUUGAAUGUCAAAGACUUACUGGGUCUUUACACCUCUGUAAAGUGGAGGUUUUGGCAAUGAGCUGUUUAACUUGGCCAAGCUAGGCUGUCAACCCAGACAACUCAGUC,0.271
AACAUCUUUGUACAUUUAAGUCUGUAUUAUAAUAAGCAAAAAGAUUGUGUGUAUGUAUGUUUAAUAUAACAUGACAGGCACGAGGACGCCUGCCUUUUAAGAGGCAGUUC,0.661

# Series 5
# Target: Interferon regulatory factor 5, full length, phosphomimetic (IRF5, Homo sapiens, UniProt Q13568-2, residues 1-514, K96S/S451D/S453D/S456D/S462D)
# Method: protein-binding microarray
# Form: double-stranded DNA, one strand shown
# Matrix: in vitro
# Tested at: 250 nM
# Setting: 60-bp whole probe
# Added: salmon DNA 0.4 mg/ml
# Reference: random background probes
# Direction: higher = stronger binding
# Shared flanks, not repeated: GCCTAGCAC … GTCTTGATTCGCTTGACGCTGCTG
Oligonucleotide,log fluorescence [z-score]
GACGATTTCAATTCCGAGACGTGCTAG,0.812
TTAGGTATCCCACTGCTTTAGTGCTAG,0.135
TTAGATGTCGGGACTGGATTAGTGCTA,-0.361
GACGAAATGGGGTATCGAGACGTGCTA,0.904
ATTGTTTCCTCTTTCACTGCGTGCTAG,3.19
TACTATATGCATGTAAATAAGTGCTAG,0.502
ATGCCTTTCGTCAAGAAGACGTGCTAG,2.59
GATGTTTTAGGTCCCTTTTCGTGCTAG,0.527
GTCCTCCTCTCTCTTTCCACGTGCTAG,0.33
GTCAGTTTTGAGCTCTGTCTGTGCTAG,0.146
TAAGGACTGCTTATCCTTTAGTGCTAG,-0.128
TTGCTGAAATAATACTGTTAGTGCTAG,0.562
TTAGAACTGGGGTATCGATTCGTGCTA,1.82
TTATGTTTCCTTTCCCTTTAGTGCTAG,2.21
GAGGGACTGGGTCTCGGGACGTGCTAG,-0.911
TTAGGACTGCTTTGCCTTTAGTGCTAG,-0.162
TTAGATATCAGTCTCGATAAGTGCTAG,2.12
TCAAATTTCCCACTTTCACTGTGCTAG,4.52

# Some of these lines once more (series 3):
Variant,normalised enrichment score
K6T,0.091
P1H,0.148
P1W,0.118
K5C,0.113
G13Q,0.124
F9C,0.103
R8M,0.0996
D10L,0.25
P3I,0.084
